{"data": "Published values collected from several papers", "note": "A part holds a random share of what one study measured. Positions count from the first letter of the parent shown."}
{"data": "Block 1", "target": "PABPC1L2, full length, GST fusion (mouse, UniProt A0ABA7IW68)", "method": "RNAcompete", "form": "RNA", "matrix": "in vitro", "concentration": "20 nM", "setting": "7-mer, probes averaged, single round", "relative to": "mean of 7-mers", "reading": "higher = stronger binding", "Residues (chain)": "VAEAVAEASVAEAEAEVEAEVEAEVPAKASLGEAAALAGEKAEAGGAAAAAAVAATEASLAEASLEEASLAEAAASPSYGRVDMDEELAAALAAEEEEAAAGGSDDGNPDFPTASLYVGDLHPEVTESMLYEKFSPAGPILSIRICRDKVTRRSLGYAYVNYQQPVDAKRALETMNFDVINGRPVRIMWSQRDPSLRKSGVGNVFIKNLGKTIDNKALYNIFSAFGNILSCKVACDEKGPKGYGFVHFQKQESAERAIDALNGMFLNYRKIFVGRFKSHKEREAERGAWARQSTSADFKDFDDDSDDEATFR"}
{"Sequence": "AUGAAAU", "7-mer Z-score": 0.144}
{"Sequence": "GGAUGUU", "7-mer Z-score": -0.0718}
{"Sequence": "AGACAAC", "7-mer Z-score": 0.129}
{"Sequence": "UACGCGG", "7-mer Z-score": -0.0663}
{"Sequence": "ACGCUAA", "7-mer Z-score": -0.119}
{"Sequence": "GGAAGAA", "7-mer Z-score": 0.548}
{"Sequence": "CUACUUC", "7-mer Z-score": -0.26}
{"Sequence": "GGCCAGU", "7-mer Z-score": -0.153}
{"data": "Block 2", "target": "CRIPT, C-terminal peptide", "method": "DHFR complementation, deep sequencing", "matrix": "yeast", "setting": "single substitutions, model-inferred values", "relative to": "wild type", "reading": "higher = weaker binding", "starting sequence": "ERBIN, PDZ domain 1 (human); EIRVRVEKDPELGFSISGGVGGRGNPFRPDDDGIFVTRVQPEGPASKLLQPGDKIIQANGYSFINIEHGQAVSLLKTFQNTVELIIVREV; partner TKNYKQTSV"}
{"Change": "V36D", "binding free energy change": "1.21 kcal/mol"}
{"Change": "L74F", "binding free energy change": "-0.0144 kcal/mol"}
{"Change": "G52H", "binding free energy change": "0.94 kcal/mol"}
{"Change": "L48Q", "binding free energy change": "0.142 kcal/mol"}
{"Change": "E1L", "binding free energy change": "0.256 kcal/mol"}
{"Change": "D53K", "binding free energy change": "0.934 kcal/mol"}
{"Change": "G13S", "binding free energy change": "1.09 kcal/mol"}
{"Change": "G52S", "binding free energy change": "0.0582 kcal/mol"}
{"data": "Block 3", "target": "CCND2, cyclin fold, Cln2 fusion (human)", "method": "yeast growth competition, sequencing", "matrix": "yeast", "setting": "strong parent motif", "relative to": "not given", "reading": "higher = stronger binding", "starting sequence": "viral docking peptide; YKVKRRLVFGADD; partner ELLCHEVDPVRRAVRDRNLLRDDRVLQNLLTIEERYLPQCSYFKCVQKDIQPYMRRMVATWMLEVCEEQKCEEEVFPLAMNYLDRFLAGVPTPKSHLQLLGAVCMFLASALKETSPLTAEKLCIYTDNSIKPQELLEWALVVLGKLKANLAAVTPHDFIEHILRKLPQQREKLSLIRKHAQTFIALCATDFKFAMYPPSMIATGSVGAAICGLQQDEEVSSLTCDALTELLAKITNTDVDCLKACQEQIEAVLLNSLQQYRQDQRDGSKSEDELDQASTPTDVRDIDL"}
{"Change": "R6F", "normalised enrichment score": -0.0698}
{"Change": "F9C", "normalised enrichment score": 0.521}
{"Change": "V8H", "normalised enrichment score": 0.852}
{"Change": "F9L", "normalised enrichment score": 0.449}
{"Change": "K4S", "normalised enrichment score": 1.86}
{"Change": "G10P", "normalised enrichment score": 1.29}
{"Change": "V8A", "normalised enrichment score": 0.365}
{"Change": "K2C", "normalised enrichment score": 1.66}
{"Change": "G10D", "normalised enrichment score": 2.89}
{"Change": "D13A", "normalised enrichment score": 0.267}
{"Change": "G10S", "normalised enrichment score": 1.13}
{"Change": "A11C", "normalised enrichment score": 1.19}
{"Change": "A11T", "normalised enrichment score": 1.67}
{"Change": "V3L", "normalised enrichment score": 0.305}
{"Change": "K2S", "normalised enrichment score": 2.04}
{"Change": "V3I", "normalised enrichment score": 1.37}
{"data": "Block 4", "target": "vanadate, free oxyanion", "method": "microfluidic competitive inhibition", "matrix": "in vitro, cell-free expressed", "concentration": "not given", "setting": "derived from inhibition constants, unchanged parent 676 nM", "reading": "lower = stronger binding", "starting sequence": "PafA, mature enzyme, eGFP fusion (Elizabethkingia meningoseptica, UniProt Q9KJX5); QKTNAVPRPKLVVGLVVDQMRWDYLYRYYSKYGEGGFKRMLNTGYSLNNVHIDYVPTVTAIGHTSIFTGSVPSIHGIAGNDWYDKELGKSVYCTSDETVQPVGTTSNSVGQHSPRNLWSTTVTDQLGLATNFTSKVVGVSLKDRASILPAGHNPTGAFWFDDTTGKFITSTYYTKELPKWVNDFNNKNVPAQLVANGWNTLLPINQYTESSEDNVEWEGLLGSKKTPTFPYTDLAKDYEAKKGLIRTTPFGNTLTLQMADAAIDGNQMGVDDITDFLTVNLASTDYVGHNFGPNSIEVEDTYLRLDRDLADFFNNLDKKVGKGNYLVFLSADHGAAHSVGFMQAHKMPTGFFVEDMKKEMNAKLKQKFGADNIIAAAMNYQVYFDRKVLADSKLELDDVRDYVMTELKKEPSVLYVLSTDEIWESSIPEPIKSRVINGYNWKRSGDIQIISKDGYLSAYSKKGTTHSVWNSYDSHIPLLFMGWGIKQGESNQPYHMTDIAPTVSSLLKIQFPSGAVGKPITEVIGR"}
{"Change": "M20V", "oxyanion analog dissociation constant": "6.09 µM"}
{"Change": "L277V", "oxyanion analog dissociation constant": "600 nM"}
{"Change": "L87V", "oxyanion analog dissociation constant": "615 nM"}
{"note": "For quick reference, copied from above (block 1):"}
{"Sequence": "UACGCGG", "7-mer Z-score": -0.0663}
{"Sequence": "GGCCAGU", "7-mer Z-score": -0.153}
